Assay results from different studies.
Compare with care: the assays were run in different laboratories. Values joined by “and” are separate records of one study, mostly repeats; a detail may differ. Numbers after ± are the reported error. ≈ marks a conversion by molar mass, not a printed value.

C=CC(=O)Nc1cc(Nc2nccc(-c3c[nH]c4ccccc34)n2)c(OC)cc1N(C)CCN(C)C  percentage recovery (storage stability; human plasma samples; 30 d, -80 °C, LLOQ level; relative to: nominal concentration): 19%
CC[C@H](C)[C@H](NC(=O)[C@H](CCC(N)=O)NC(=O)[C@@H](NC(=O)[C@@H]1CCCN1[C@@H]1CN(C(=O)[C@H](CCCCN)NC(=O)[C@H](CC(N)=O)NC(=O)[C@@H](NC(=O)[C@@H](NC(=O)[C@H](CCC(N)=O)NC(=O)[C@@H](N)C(C)C)[C@@H](C)CC)[C@@H](C)CC)CC[C@H]1NS(=O)(=O)c1ccc(C)cc1)C(C)C)C(=O)N[C@H](C(=O)N[C@@H](Cc1ccc(O)cc1)C(=O)N[C@@H](CCCCN)C(N)=O)C(C)C  helix content (circular dichroism; methanol; 125 µM, 20 °C): 0%
COc1ccc(Nc2nc(Nc3ccc(OCCOCC[18F])cc3)ncc2Br)cc1  uptake ratio (ICR mice, S180 tumour; intravenous, 370 kBq, 5 min; relative to: tumour over blood): 0.58
O=C(c1ccc([C@H]2[C@@H](F)[C@@H](F)C[C@@H](F)[C@H]2F)cc1)N1CCCC1  hepatic clearance (liver microsome stability; human liver microsomes; 1 µM, without NADPH): 3.9 mL/min/kg
COC(=O)[C@@]1(C)C=C(C(=O)Nc2cccc(C(=O)Nc3ccc(Nc4nccc(-c5cccnc5)n4)c(C)c3)c2)C(=O)CC1  compound remaining (Wistar rat, male, plasma; 1 µM, 20 min): 32.5%
O=C(CN1CN(c2ccccc2)C2(CCN(C(=O)c3ccc4[nH]ncc4c3)CC2)C1=O)Nc1ccccn1  CLint (human liver microsomes): 66 µL/min/mg protein
C=C(NC(=O)c1csc(-c2nc3c(cc2O)-c2nc(cs2)C(=O)NC(C(C)O)C(=O)NC(=C(C)OC)c2nc(cs2)C(=O)NC2c4nc(cs4)C(=O)NC(COC(=O)c4c5c6c(cccc6n4O)COC(=O)C(OC4CC(C)(O)C(N(C)C)C(C)O4)C2OC5)c2nc-3cs2)n1)C(N)=O (stereo not shown)  Cmax (cynomolgus monkey, both sexes, plasma; intravenous infusion, 1.5 mg/kg twice daily, 6 to 12 h, second dose): 11900 ± 7800 ng/mL
O=C(N1CCCCC1)C12CC(c3ccccc3)(C1)C2(F)F  compound remaining (metabolic stability; human, liver microsomes; 2 µM, 7 min, pH 7.4): 98%
CC[C@H](C)[C@@H]1NC(=O)[C@H](Cc2ccc(O)cc2)NC(=O)CCCSC[C@@H](C(=O)N(CC(=O)N[C@@H](CC(C)C)C(=O)NCC(N)=O)Cc2ccc(F)cc2)NC(=O)[C@H](CC(N)=O)NC(=O)[C@H](CCC(N)=O)NC1=O  Cmax (healthy human, plasma; intranasal, 200 µg every 3 h, after first dose): 0.127 ng/mL
CC(C)C[C@@H](NC(=O)[C@H](NC(=O)[C@H]1CCCN1)[C@H](C)O)C(=O)N[C@H](Cc1c[nH]cn1)C(=O)N[C@@H](C(=O)N[C@H](Cc1c[nH]cn1)C(=O)N[C@H](CC(N)=O)C(=O)N[C@H](CCCNC(=N)N)C(=O)N[C@H](CCCNC(=N)N)C(=O)N[C@H](CCCNC(=N)N)C(=O)N[C@H](CCCNC(=N)N)C(=O)N[C@H](CCCNC(=N)N)C(N)=O)[C@H](C)O  cholesterol (Beagle dog, blood; oral, 3 mg/kg daily, 3 months): 5.5 mmol/L
O=C(Nc1ccc(C2CCCCC2)cc1)C1(N2CCOCC2)CC1  hepatic clearance (liver microsome stability; human liver microsomes; 1 µM, without NADPH): 8.2 mL/min/kg
C#CCOc1ccc(/C=C2\SC(=O)N(CC(=O)NCc3ccccc3)C2=O)cc1  aqueous solubility (shake-flask HPLC; water; 40 h, 25 °C): 5.9 µg/mL (≈ 14.5 µM)
NS(=O)(=O)c1cccc(-c2ccc([C@H]3[C@@H](F)[C@@H](F)C[C@@H](F)[C@H]3F)cc2)c1  hepatic clearance (hepatocyte stability; cryopreserved human hepatocytes; 1 µM): 6.2 mL/min/kg
COC1C=COC2(C)Oc3c(C)c(O)c4c(c3C2=O)C2=NC3(CCN(CC(C)C)CC3)NC2=C(NC(=O)C(C)=CC=CC(C)C(O)C(C)C(O)C(C)C(OC(=O)Nc2cscn2)C1C)C4=O (stereo not shown)  fAUC/MIC ratio (CD-1 mouse female, plasma; oral, 10 mg/kg): 24.8
OCCn1nc(-c2ccccc2)c2c(Cl)c(-c3ccccc3)nnc21  AUC (mouse juvenile P20, plasma; intraperitoneal, 40 mg/kg): 2.28 µM·h
COc1cc(N2CCN(C(=O)C3CCCN3)CC2)ccc1Nc1ncc(Cl)c(Nc2ccccc2P(C)(C)=O)n1 (stereo not shown)  body weight (nude mice, NCI-H3122 xenograft; oral, dose not given, day 1): 23.8 g and 22.4 g and 22.9 g and 23 g
CN(O)C(=O)CCC(=O)NCCCN(CCCCN(CCCNC(=O)CCC(=O)N(C)O)C(=O)CCC(=O)N(C)O)C(=O)CCC(=O)N(C)O.[89Zr]  intact complex (radio-TLC; aqueous buffer; 1 d, pH 7, 37 °C, 89Zr-labelled complex, added: DTPA 1000-fold excess): 94.5 ± 0.8%
COc1cccc(OC)c1-c1cc(C(=O)NC2(C(=O)O)C3CC4CC(C3)CC2C4)nn1-c1ccc(C(=O)N(C)CCOCCOCCN(C)C(=O)[C@H](CCCCNC(=O)[C@H](CC(C)C)NC(=O)C2OC2C(=O)O)NC(=O)CN2CCN(CC(=O)[O-])CCN(CC(=O)[O-])CCN(CC(=O)[O-])CC2)cc1C(C)C.[177Lu+3] (mixture of isomers)  tumour-to-bone ratio (mouse, HT-29 xenograft; 24 h post injection, biodistribution; relative to: tumour over bone uptake): 2.66
CC(C)=CCc1cc(C(=O)/C=C/c2ccc(O)cc2)c(O)cc1O  CLint (phase I metabolism; mouse liver microsomes): 10.7 µL/min/mg
CS(=O)(=O)c1ccc(-c2ccc([C@H]3[C@@H](F)[C@@H](F)C[C@@H](F)[C@H]3F)cc2)cn1  hepatic clearance (liver microsome stability; mouse liver microsomes; 1 µM): 24 mL/min/kg
O=C(Nc1cnccc1-c1ccc([18F])nc1)c1ccnc(NC(=O)C2CC2)c1  SUV (FVB/NJ mouse, both sexes, brain; intravenous, 1 min post-injection, added: P-gp inhibitor tariquidar 15 mg/kg iv): 0.36 ± 0.2
COc1cccc(OC)c1-c1cc(C(=O)NC2(C(=O)O)C3CC4CC(C3)CC2C4)nn1-c1ccc(C(=O)N(C)CCOCCN(C)C(=O)[C@H](CCCCNC(=O)[C@H](CC(C)C)NC(=O)C2OC2C(=O)O)NC(=O)CN2CCN(CC(=O)[O-])CCN(CC(=O)[O-])CCN(CC(=O)[O-])CC2)cc1C(C)C.[177Lu+3] (mixture of isomers)  tissue uptake (mouse, HT-29 xenograft, kidney; 24 h post injection): 7.4 %ID/g
CCCN(C)c1cc(C(F)(F)F)nc(SCCC(=O)NCc2ccco2)n1  ECG parameters (electrocardiography; Wistar rat; intraperitoneal, 25 mg/kg, 2 min post-dose, isoflurane anaesthesia; relative to: vehicle control): no effect
Cc1nn(-c2nc3c(F)cc(F)cc3s2)c(O)c1C(c1ccc(C(F)(F)F)cc1)c1c(C)nn(-c2nc3c(F)cc(F)cc3s2)c1O  plasma concentration (ICR mouse; intravenous, 5 mg/kg, 24.0 h): 272 ng/mL and 1770 ng/mL and 253 ng/mL
CC1(C)OCCc2cc(C(=O)N3CCC(c4nc(-c5ccccc5)n[nH]4)CC3)ccc21  permeability (PAMPA; artificial lipid membrane; 30 min): 886 ± 139 ×10⁻⁶ cm/s
O=C(O)c1ccc(/C=C2\SC(=S)N(Cc3cccc(C(F)(F)F)c3)C2=O)cc1  hepatic clearance (mouse liver microsomes; 1 µM): < 20.7 mL/min/kg
Cn1ncc2cc(CN3CCC(F)(F)C(COc4ccc(C#N)cc4)C3)ccc21 (stereo not shown)  fu (equilibrium dialysis; mouse plasma): 0.007
CN([O-])C(=O)CN1CCN(CC(=O)N(C)[O-])CCN(Cc2ccccn2)CC1.[89Zr+4]  tracer uptake (mouse, kidney; intravenous, 1 h): 1.64 %ID/g
C/C(N)=N/C(=N\S(=O)(=O)c1ccc(C(F)(F)F)cc1)N1C[C@H](c2ccccc2)C(c2ccc(Cl)cc2)=N1  half-life (male C57BL/6 mouse, muscle; intravenous, 10 mg/kg): 150 min
O=C(Nc1cnccc1-c1ccc([18F])cc1)c1ccnc(NC(=O)C2CC2)c1  SUV (FVB/NJ mice, both sexes, brain; intravenous, 30 min, median, P-gp inhibitor pretreatment, added: tariquidar 15 mg/kg iv): 0.4
COc1cccc(OC)c1-c1cc(C(=O)NC2(C(=O)O)C3CC4CC(C3)CC2C4)nn1-c1ccc(C(=O)N(C)CCCN(C)CCCN(C)C(=O)[C@H](CCCCNC(=O)[C@H](CC(C)C)NC(=O)C2OC2C(=O)O)NC(=O)CN2CCN(CC(=O)[O-])CCN(CC(=O)[O-])CCN(CC(=O)[O-])CC2)cc1C(C)C.[177Lu+3] (mixture of isomers)  tumour-to-kidney ratio (mouse, HT-29 xenograft; 168 h post injection, biodistribution; relative to: tumour over kidney uptake): 1.25
COc1ccc2c(c1)O[B-]1(c3ccccc3)OC(=O)C(c3ccccc3)=N[N+]1=C2 (stereo not shown)  fluorescence emission maximum (toluene): 503 nm
O=C(NS(=O)(=O)c1cccs1)c1cc2ccccc2n1Cc1ccc(Br)c2ccccc12  plasma concentration (Sprague-Dawley rat, male, plasma; oral, 20 mL/kg, 2 h): 2250 ng/mL
C=Cc1ccccc1[B-]12OC(=O)C(c3ccccc3)=N[N+]1=C(C)c1ccc(N(CC)CC)cc1O2 (stereo not shown)  fluorescence emission maximum (toluene): 509 nm
O=C(c1ccc(C2CCCCC2)cc1)N1CCCC1  hepatic clearance (liver microsome stability; dog liver microsomes; 1 µM): 30 mL/min/kg
CCCCCCCOc1ccc(CC[C@](N)(CO)COP(=O)(O)O)cc1C(F)(F)F  AUCtau (healthy male humans, plasma; 0.75 mg amiselimod, day 1, mean): 25.6 ng·h/mL
O=C(NC1CCC(F)(F)CC1)C(c1cncnc1)N(C(=O)C(F)Cl)c1ccc(OC(F)(F)F)cc1 (stereo not shown)  CLint (human liver microsomes; concentration not given, pH 7.4): < 9.6 µL/min/mg
Cc1ccc(OCC(=O)N(Cc2cccs2)c2ccn[nH]2)cc1  remaining compound (pooled dog liver microsomes; 10 µM, 10 min; relative to: time 0): 67.3%
COc1ccc2c(c1)CN(C(=O)CCN1CCC(Cc3ccccc3)CC1)CCS2  fu (dog plasma; 75 ng/mL): 0.068
COC1C(c2ccc(Cl)c(Cc3ccc(OC4CCOC4)cc3)c2)OC(CO)C(O)C1O (stereo not shown)  unbound fraction (mouse plasma; 1 µM, 5 h): 0.067
C=CC(=O)Nc1cc(Nc2nccc(-c3cn(C)c4ccccc34)n2)c(OC)cc1N(C)CCNC  percentage recovery (storage stability; human plasma samples; 30 d, -80 °C, LQC level; relative to: nominal concentration): 17.9%
CCc1cnc(NC(=O)c2cc(S(=O)(=O)N3CCOCC3)ccc2N(C)C2CCCC2)s1  Monocytes differential count (mouse, blood; 10 mg/kg, 3 doses): 9%
CCN(CC)c1ccc2c(c1)O[B-]1(c3c(C)cccc3C)OC(=O)C(c3ccccc3)=N[N+]1=C2 (stereo not shown)  fluorescence emission maximum (toluene): 511 nm
O=C(NCc1cccc(Cl)c1)c1ccc(C2CCCCC2)cc1  hepatic clearance (liver microsome stability; rat liver microsomes; 1 µM): 48 mL/min/kg
CN1CCC[C@]1(C)/C=C/S(=O)(=O)NC(=O)Nc1c2c(cc3c1CC(O)C3)CCC2 (stereo partly shown)  AUC(0-inf) (human, plasma; oral, 100 mg twice daily of parent drug, day 14, metabolite of dosed drug): 290 µg·h/mL
O=C(CC1CCOCC1)Nc1ccc([C@H]2[C@@H](F)[C@@H](F)C[C@@H](F)[C@H]2F)cc1  hepatic clearance (liver microsome stability; human liver microsomes; 1 µM, without NADPH): 3.9 mL/min/kg
COc1cccc(OC)c1-c1cc(C(=O)NC2(C(=O)O)C3CC4CC(C3)CC2C4)nn1-c1ccc(C(=O)N(C)CCCN(C)C(=O)[C@H](CCCCNC(=O)[C@H](CC(C)C)NC(=O)C2OC2C(=O)O)NC(=O)CN2CCN(CC(=O)[O-])CCN(CC(=O)[O-])CCN(CC(=O)[O-])CC2)cc1C(C)C.[177Lu+3] (mixture of isomers)  tumour-to-kidney ratio (mouse, HT-29 xenograft; 168 h post injection, biodistribution; relative to: tumour over kidney uptake): 0.79
Cc1ccc(-c2ccc([C@H]3[C@@H](F)[C@@H](F)C[C@@H](F)[C@H]3F)cc2)cn1  hepatic clearance (liver microsome stability; cynomolgus liver microsomes; 1 µM): 34 mL/min/kg
C=C[C@]1(C)C[C@@H](OC(=O)CSc2ccc(NC(=O)c3ccco3)cc2)[C@]2(C)[C@H](C)CC[C@]3(CCC(=O)[C@H]32)[C@@H](C)[C@@H]1O  elimination half-life (M. gallisepticum-infected chickens, plasma; intramuscular, 80 mg/kg single dose): 4.87 h
